Assay results collected from several papers.
Numbered parts are unrelated; each lists some results of a single study. Substitutions count along the parent as printed.

Study 1 — method: DHFR PCA, deep sequencing; matrix: yeast; added: (+)-ABA 58 µM; relative to: wild-type fitted maximum; reading: higher = stronger binding
Target: ABI1, truncated, D143A, DHFR fusion (Arabidopsis thaliana)
Setting: methotrexate growth selection, single substitutions
Starting sequence: PYL1, truncated, DHFR fusion (Arabidopsis thaliana); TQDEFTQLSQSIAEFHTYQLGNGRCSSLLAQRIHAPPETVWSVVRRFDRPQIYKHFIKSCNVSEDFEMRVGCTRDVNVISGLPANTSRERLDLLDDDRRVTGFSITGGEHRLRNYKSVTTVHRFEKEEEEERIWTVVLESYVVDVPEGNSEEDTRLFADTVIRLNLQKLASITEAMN; partner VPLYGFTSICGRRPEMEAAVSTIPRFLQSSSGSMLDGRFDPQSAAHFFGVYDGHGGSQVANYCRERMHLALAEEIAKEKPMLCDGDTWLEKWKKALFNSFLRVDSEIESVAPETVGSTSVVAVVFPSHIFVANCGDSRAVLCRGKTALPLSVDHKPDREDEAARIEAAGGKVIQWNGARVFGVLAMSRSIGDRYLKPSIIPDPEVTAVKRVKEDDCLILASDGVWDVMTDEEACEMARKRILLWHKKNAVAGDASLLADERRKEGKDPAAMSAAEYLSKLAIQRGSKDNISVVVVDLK
`L29R` — result for “relative binding score”: 65.1%.
`I12R` — result for “relative binding score”: 48.6%.
`G108P` — result for “relative binding score”: -9.25%.
`Q167M`: “relative binding score” 82%.
Under “relative binding score”, `F15Y` is recorded as 84.2%.
`M68L`: “relative binding score” 96.8%.
For `S140C`, “relative binding score” read 0.879%.
`I105G`: “relative binding score” -7.87%.
For `W134C`, “relative binding score” read 98%.
For `V161N`, “relative binding score” read -6.89%.
`E127M` — result for “relative binding score”: 90.4%.
`D92H`: “relative binding score” 33.7%.
For `Y141K`, “relative binding score” read -3.03%.
For `G102M`, “relative binding score” read 37.1%.
`S26W`: “relative binding score” 73.8%.
For `E131A`, “relative binding score” read 97.4%.
`I105L` — result for “relative binding score”: 19.1%.
`G71Q`: “relative binding score” 22.9%.

Study 2 — target: CCNB1, cyclin fold, Cln2 fusion (human); method: yeast growth competition, sequencing; matrix: yeast; setting: weak parent motif; relative to: not given; reading: higher = stronger binding
Starting sequence: KIF20B docking peptide (human); KRAKRKLYTSEIS
Under “normalised enrichment score”, `E11A` is recorded as 0.535.
Under “normalised enrichment score”, `K1A` is recorded as 0.434.
`R5A` — result for “normalised enrichment score”: -0.0703.
Under “normalised enrichment score”, `S13A` is recorded as 0.281.
For `S10A`, “normalised enrichment score” read -0.0411.
`K4A` — result for “normalised enrichment score”: 0.42.

Study 3 — method: universal PBM; molecule type: double-stranded DNA, one strand shown; matrix: in vitro; concentration: not given; reading: higher = stronger binding
Target: Sal-like protein 4, full length isoform B (SALL4, Homo sapiens, UniProt Q9UJQ4-2, residues 1-616)
Setting: 8-mer, flanks averaged, mean of replicates
With `AGGCCGCG` the E-score was -0.15.
`CATCTGGA` has an E-score of -0.196.
`AGGACATA` has an E-score of 0.181.
With `GGCGGTCA` the E-score was -0.263.
For `GAGAGGCA`, the E-score was -0.228.
`CCTCGGGC` has an E-score of -0.291.
For `GGCATACC`, the E-score was -0.144.
The E-score of `CCCCACCG` is reported as -0.234.
With `ACGCTTGG` the E-score was -0.0858.
The E-score of `CCCGCAAG` is reported as -0.346.
With `GAGTGCCA` the E-score was -0.112.

Single results of other studies
`PhoQ, residues 284 288 289 292 302 303 SMYGEC` gave a fold induction of 15 (PhoP, residues 12 14 15 18 19 VGHWL (Escherichia coli, UniProt P23836); Sort-seq, refers to: YFP reporter; E. coli; PhoQ-PhoP variant library, added: 10 µM Mg2+; relative to: high Mg2+ state, higher = stronger signaling).
